Assay results from different studies.
Every numbered part comes from another study and shows a few of its results, in no order.

Set 1
Target: Interferon regulatory factor 7, full length, phosphomimetic (IRF7, Homo sapiens, UniProt Q92985, residues 1-503, S101K/S471D/S472D/S475D/S476D/S477D/S483D/S484D/S487D)
Method: protein-binding microarray
Molecule type: double-stranded DNA, one strand shown
Sample: in vitro
Concentration: 250 nM
Notes: 60-bp whole probe
Added: salmon DNA 0.4 mg/ml
Relative to: random background probes
Reading: higher = stronger binding
Constant ends, left off below: GCCTAGCAC … GTCTTGATTCGCTTGACGCTGCTG
Residues (chain): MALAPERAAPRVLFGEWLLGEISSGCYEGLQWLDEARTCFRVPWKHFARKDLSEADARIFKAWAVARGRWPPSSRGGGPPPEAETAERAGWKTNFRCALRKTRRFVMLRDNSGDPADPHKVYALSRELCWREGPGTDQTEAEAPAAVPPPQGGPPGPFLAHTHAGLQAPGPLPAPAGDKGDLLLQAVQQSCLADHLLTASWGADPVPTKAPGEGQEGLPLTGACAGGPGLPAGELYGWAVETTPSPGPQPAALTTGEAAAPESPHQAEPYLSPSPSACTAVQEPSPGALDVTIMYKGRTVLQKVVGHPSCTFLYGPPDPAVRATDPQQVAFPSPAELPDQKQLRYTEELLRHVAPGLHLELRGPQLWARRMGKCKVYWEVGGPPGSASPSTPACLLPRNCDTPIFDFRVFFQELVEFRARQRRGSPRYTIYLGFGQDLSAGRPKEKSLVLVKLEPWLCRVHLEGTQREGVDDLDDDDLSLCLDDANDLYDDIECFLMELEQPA
The log fluorescence of `GACGGACTGCGTTTCCTGACGTGCTAG` is reported as -0.245 z-score.
With `GACGAACTGGGGTATCGAGGCGTGCTA` the log fluorescence was -0.63 z-score.
`GACGGTATCCACTTTCGGGACGTGCTA` gave a log fluorescence of 0.552 z-score.
The log fluorescence of `CACTATTTAAGACCTATGCACGTGCTA` is reported as 0.626 z-score.
`GACGGTTTCGGTCTCGGGTCGTGCTAG` has a log fluorescence of 8.73 z-score.
For `GACGGTTACGGGTTTCGGGACGTGCTA`, the log fluorescence was 2.66 z-score.
`GACGGTTTCCACTTTCGGGACGTGCTA` has a log fluorescence of 5.21 z-score.
With `TCACCTCTCATTCCAATACTGTGCTAG` the log fluorescence was 0.549 z-score.
`CCAATTCTTTTTATGCTTTCGTGCTAG` gave a log fluorescence of 1.15 z-score.
`AGGAAGATCATTCTCACTGCGTGCTAG` has a log fluorescence of -0.222 z-score.
For `CCCTTATTCTAGCCTCCATTTGTGCTA`, the log fluorescence was 1.23 z-score.
`GACGGACTGCTTTTCCTGAAGTGCTAG` gave a log fluorescence of 0.122 z-score.
`TTAGGTATCGAGTATCGGTTAGTGCTA` gave a log fluorescence of 1.37 z-score.
`CTCATTCTCTGCTTCTGTATGTGCTAG` has a log fluorescence of 1.43 z-score.
`TTAGGTTTCGACTTTCGGTTGGTGCTA` gave a log fluorescence of 11 z-score.
`TTAGGACTGTTTTTCCTTTAGTGCTAG` has a log fluorescence of 2.01 z-score.
For `TCATCTATTGCTTTCTCACTGTGCTAG`, the log fluorescence was 0.62 z-score.
The log fluorescence of `GCCGGACTGCTACTGCTGACGTGCTAG` is reported as -0.814 z-score.
For `TCATTCATGAAGTTTTAAACTGTGCTA`, the log fluorescence was 0.486 z-score.
`TTAGAACTTAGTTTCGATTAGTGCTAG` has a log fluorescence of 10.1 z-score.
For `TCACCTATAGGGCCTGACACTGTGCTA`, the log fluorescence was -0.226 z-score.

Set 2
Target: Fragile X messenger ribonucleoprotein 1, C-terminal low-complexity region (Fmr1, Mus musculus, UniProt P35922)
Method: RNA Bind-n-Seq
Molecule type: RNA
Sample: in vitro
Concentration: 200 nM
Notes: whole 134-nt RNA, ends assumed
Added: 150 mM KCl
Relative to: input library
Reading: higher = stronger binding
Constant ends, left off below: GGGAGUUCUACAGUCCGACGAUC … UGGAAUUCUCGGGUGUCAAGG
The log2 enrichment of `CACAGACAACACGCACCCACGCAGACACAGAGGGAAGGGGUUGGGAUGGGGACAGGGUGCACAGCAGGGCGGGGUAGGACCCCAGCCCCU` is reported as 1.32.
The log2 enrichment of `CUGUGCUACACAUCGUAUGUACCGAAUCGGGAAAAAAAGGAAAAAAAGGGGAAAAAAAGGGGAAAGUAUUAUGUUACGCCGUUCGGAUCU` is reported as -0.194.
The log2 enrichment of `CAAGUCCUGUGCUACACAUCGUAUGUACCGAAUCGGGAAAAAGGGAAAGGGUGGGAAAGUAUUAUGUUACGCCGUUCGGAUCUGCACUUC` is reported as 0.8.
The log2 enrichment of `AGUCCUGUGCUACACAUCGUAUGUACCGAAUCGGAAAAAAAGGAAAAAAAGGUUUGGAAAGUAUUAUGUUACGCCGUUCGGAUCUGCACU` is reported as -1.56.
For `CCUGUGCUACACAUCGUAUGUACCGAAUCGGGUUUUUUUGGGAAAAAAAGGGAAAAAGGGAAAGUAUUAUGUUACGCCGUUCGGAUCUGC`, the log2 enrichment was -1.01.
`UAUGAGGAUGAGUUGGUGCCCCUUUUUGAGAAGGCCGGACCCAUUUGGGAUCUACGUCUUAUGAUGGAUCCACUGUCCGGUCAGAAUAGA` has a log2 enrichment of -0.153.
`CUCAAGUCCUGUGCUACACAUCGUAUGUACCGAAUCGGCGGGGCGGGGCGGGGAAAGUAUUAUGUUACGCCGUUCGGAUCUGCACUUCCA` gave a log2 enrichment of 0.971.
For `UCAAGUCCUGUGCUACACAUCGUAUGUACCGAAUCGGUUUGGGGUUUGGUUUGGAAAGUAUUAUGUUACGCCGUUCGGAUCUGCACUUCC`, the log2 enrichment was -0.176.
For `UCAAGUCCUGUGCUACACAUCGUAUGUACCGAAUCGGGGUGGGGAGGGGUGGGGAAAGUAUUAUGUUACGCCGUUCGGAUCUGCACUUCC`, the log2 enrichment was 1.36.
`UCCUGUGCUACACAUCGUAUGUACCGAAUCAAAGUGUGUGUGUAAAGUGUGUGUGUAAAAAAGUAUUAUGUUACGCCGUUCGGAUCUGCA` has a log2 enrichment of -0.102.
The log2 enrichment of `AGUCCUGUGCUACACAUCGUAUGUACCGAAUCAAACCCAAACCCCCCCAAACCCAAAAAAGUAUUAUGUUACGCCGUUCGGAUCUGCACU` is reported as -0.248.
For `GUCCUGUGCUACACAUCGUAUGUACCGAAUCAAACCCCCCCAAAUUUAAAUUUUUAAAAAAGUAUUAUGUUACGCCGUUCGGAUCUGCAC`, the log2 enrichment was 0.429.
`CAAGUCCUGUGCUACACAUCGUAUGUACCGAAUCGGGAGGGUGGGAAAAAAAGGGAAAGUAUUAUGUUACGCCGUUCGGAUCUGCACUUC` gave a log2 enrichment of 0.719.
With `GCAGGAAGUAAAAACAAAUGGAAAUGCUUCGGAUAGUGGCAGGGGUGGGGGUUGCUAAAGAAAGGGUGGGAUGGGAGUGGGUAAAGAGUU` the log2 enrichment was 0.0509.

Set 3
Target: Histone acetyltransferase KAT6A, both winged helices, GST fusion (KAT6A, Homo sapiens, UniProt Q92794, residues 1-181)
Method: protein binding microarray
Molecule type: double-stranded DNA, one strand shown
Sample: in vitro
Concentration: not given
Notes: 8-mer, flanks averaged, mean of 2 arrays, mostly near background
Relative to: not given
Reading: higher = stronger binding
Residues (chain): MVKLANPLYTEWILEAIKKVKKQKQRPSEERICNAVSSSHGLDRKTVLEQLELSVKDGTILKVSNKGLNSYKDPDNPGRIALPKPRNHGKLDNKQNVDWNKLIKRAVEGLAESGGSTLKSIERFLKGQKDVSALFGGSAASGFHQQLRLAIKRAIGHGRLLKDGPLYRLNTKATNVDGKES
`ACGGCCGG` has an E-score of 0.302.
`GGCTATGA` gave an E-score of -0.00744.
`AGTAGTAC` gave an E-score of 0.0311.
`CAATGAAA` has an E-score of -0.185.
The E-score of `AGTCGAAT` is reported as -0.1.
`AAGGCGAA` gave an E-score of 0.0323.
For `AATTCAAG`, the E-score was -0.123.
`ATACCTCG` has an E-score of -0.0732.
With `CGCGGGGC` the E-score was 0.259.
`GATGAATC` gave an E-score of -0.147.
`TAAATGCA` has an E-score of -0.183.
The E-score of `CAACAGAG` is reported as -0.0431.
`ATCTGACA` gave an E-score of -0.175.
With `ATCTAAAA` the E-score was -0.184.
For `TACTCTCA`, the E-score was -0.152.
With `CGCCATGC` the E-score was 0.171.

Set 4
Target: RNA binding protein fox-1 homolog 2, RRM domain, GST-SBP tag (RBFOX2, Homo sapiens, UniProt O43251-10, residues 100-194)
Method: RNA Bind-n-Seq
Molecule type: RNA
Sample: in vitro
Concentration: 365 nM
Notes: natural RNA segment, single round, ends assumed
Relative to: no-protein control
Reading: higher = stronger binding
Constant ends, left off below: GGGAGUUCUACAGUCCGACGAUC … UGGAAUUCUCGGGUGCCAA
Construct (chain): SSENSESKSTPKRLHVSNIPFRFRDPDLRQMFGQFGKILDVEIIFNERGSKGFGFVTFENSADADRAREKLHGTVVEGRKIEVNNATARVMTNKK
For `AAGAGUAAGCCUGGAAAAUCUCACUUGUUUUCGUAGUAUUGGCUGUAUUUCAGUGCCUCCAGCUUUGCACUUGAGAGACAAGUGUUUACUGCUGUUUGACUUUCCCCUUG`, “RBNS enrichment (R)” read 0.673.
`AUUGUAUUCUACUGACAGGAUGCGGUUUUAAAUUUUAUGCCAUCUGUUAUUUAUUCUUGUUUAUUCAAAUGACUGCAAUAACAAUGUUUCAUUCACUAAUGUUAAGGUUA` — result for “RBNS enrichment (R)”: 0.656.
`CUUUACUGAUUUAAUACAGAAUAACAAUCUUAUUUUCCACUUGGUAACUAUGGCUUUAUGUUGGGUUACUGUUUAAGGAAAGUUGAUCUGGGCCUUUUUAAAAACAUAAU` — result for “RBNS enrichment (R)”: 0.305.
For `GAGGCCACCUAGCAAGGUAGUAACUAGUCUAACCUGUGCUAACAUUAGGGCACAACCUGUUGGAUAGUUUUAGCUUCCUGUGAACAUUUGUAACCACUGCUUCAGUCACC`, “RBNS enrichment (R)” read 0.448.
For `AGCAGAAUAGCUUUGUGCUAUUCCAGUAUAAGAUGAACUGUAAUAAUUUUUGACUUCCCUAUUUCAGAGAUAGUCAAUAUAAUAUGUUUAUCUAUAUCCAUAUGGAUGGA`, “RBNS enrichment (R)” read 0.26.
`AGGAUGAAGGCUAACGGCUGUGCUUGCCCUGGUUACUGGAUGGGAUUCUCUGCUGGGCGGGUGGGGAAGCAGCUCUACCCUUCCCUACCCCUCCCUGCCCCAACUCUGAC`: “RBNS enrichment (R)” 0.968.
`AGGAUUGGUACUCAUUAAUUAUGUCUUGCAAAUAUUUUCUAAAAAUUCAACCACUCUCCUAAAAUGGUGUUUAAAUAUUUUGUAGGGCAGAAUAUGCAUAUUGCCUGUUA` — result for “RBNS enrichment (R)”: 3.69.
`GCUUUGCUAACCAAAGAACAUAUAUUUUACUGUCCAUUUCCUCAGCUCCCCAGUCCGAGUAGCAUUUUCUCUGCCCUCCGACUUCUUUUGACCUCAUCUUCCUUCUGGGU` — result for “RBNS enrichment (R)”: 0.565.
Under “RBNS enrichment (R)”, `GUGGAAAUGAUCAGGAAUACUGACCGUGUUUCUCUUGCCUCCGAGGUUCUUGGGCACACUCUAUAGCCAUACUGGACAGGAACCAGGUGCCCCGUGUAGGCAUCGUCGGU` is recorded as 0.259.
`UUUUCCAGUUAUACGAGAUGCCAAAAUAGCACUUUUGUAUUUAACAGAGUGCUUUAUGCUUUUUAAUGACUGUUAGUGUUUCUCACAUGCCUGUGAGAUACAUCAGCAUU` — result for “RBNS enrichment (R)”: 0.314.
For `AGAGAUGAACGAAAUCGGGAGCCCUCGCCCAAGGCUAGGGCAUCGGGGAUGGGGUGUGUGGGGAGGGGACCUGUGAAUCCUGACCACCUUGAAUCCAGAACCAGGACUUU`, “RBNS enrichment (R)” read 0.45.
`GCCCAGCUGCACUUGUUGUUGAUACAGCAUAAGUGAAUCAUGGGCAUUUCCCUGAGAGCAGUGGGAGAGGCCCUCUGAGUUGGAAGUUGAGCUCCACCUCCUUUCCAAGU` — result for “RBNS enrichment (R)”: 0.449.
